Measured values pooled from the literature.
Each line is one published result; not all experiments were run side by side. ± gives the spread as reported. Converted amounts (≈) assume the structure as drawn.
Organism: Acinetobacter baumannii

Under “MIC of colistin”, `Oc1cc(C(F)(F)F)ccc1-c1nc2c(C(F)(F)F)cc(C(F)(F)F)cc2[nH]1` is recorded as 0.5 µg/mL (colistin potentiator; AB 4112, colistin-resistant; 5 µM).
`CC[C@@H](C)[C@@H](NC(=O)[C@@H](C)NC(=O)[C@@H](CCCCN)NC(=O)[C@@H](CC(C)C)NC(=O)[C@@H](C)NC(=O)[C@H](NC(=O)[C@@H](Cc1c[nH]cn1)NC(=O)[C@@H](CC(C)C)NC(=O)[C@H](NC(=O)[C@H](NC(=O)[C@@H](CCCCN)NC(=O)[C@H](NC(=O)[C@@H](C)NC(=O)[C@@H](CO)NC(=O)[C@@H](CCCCN)NC(=O)[C@@H](Cc1ccccc1)NC(=O)[C@H](NC(=O)[C@@H](CCCCN)NC(=O)[C@@H](CC(C)C)NC(=O)[C@@H](Cc1ccccc1)NC(=O)[C@@H](CO)NC(=O)[C@@H](CCCCN)NC(=O)[C@@H](Cc1c[nH]c2ccccc12)NC(=O)[C@@H](CCCCN)NC(C)=O)[C@H](C)O)C(C)C)[C@H](C)O)C(C)C)[C@H](C)O)C(=O)N[C@H](CO)C(=O)N[C@H](CO)C(N)=O` gave a therapeutic index of 2.57 (11 isolates; relative to: HC50 over geometric mean MIC).
`CC(C)C[C@H](NC(=O)[C@H](Cc1ccc(O)cc1)NC(=O)[C@@H]1CCCN1C(=O)[C@H](CCCNC(=N)N)NC(=O)[C@@H]1CCCN1C(=O)[C@H](CCCCN)NC(=O)[C@H](CC(=O)O)NC(=O)[C@@H]1CCCN1C(=O)[C@H](CCCNC(=N)N)NC(=O)C1(N)CCCCC1)C(=O)N1CCC[C@H]1C(=O)N[C@@H](CCCNC(=N)N)C(=O)N1CCC[C@H]1C(=O)N[C@@H](CCCNC(=N)N)C(=O)N1CCC[C@H]1C(=O)N1CCC[C@H]1C(=O)N[C@@H](CCCNC(=N)N)C(=O)N1CCC[C@H]1C(=O)N[C@H](C(=O)N[C@@H](CCCNC(=N)N)C(=O)N[C@@H](CSc1c(F)c(F)c(-c2c(F)c(F)c(SC[C@H](NC(=O)[C@H](CCCNC(=N)N)NC(=O)[C@@H](NC(=O)[C@@H]3CCCN3C(=O)[C@H](CCCNC(=N)N)NC(=O)[C@@H]3CCCN3C(=O)[C@@H]3CCCN3C(=O)[C@H](CCCNC(=N)N)NC(=O)[C@@H]3CCCN3C(=O)[C@H](CCCNC(=N)N)NC(=O)[C@@H]3CCCN3C(=O)[C@H](CC(C)C)NC(=O)[C@H](Cc3ccc(O)cc3)NC(=O)[C@@H]3CCCN3C(=O)[C@H](CCCNC(=N)N)NC(=O)[C@@H]3CCCN3C(=O)[C@H](CCCCN)NC(=O)[C@H](CC(=O)O)NC(=O)[C@@H]3CCCN3C(=O)[C@H](CCCNC(=N)N)NC(=O)C3(N)CCCCC3)C(C)C)C(=O)NN)c(F)c2F)c(F)c1F)C(=O)NN)C(C)C` has an MBC of 30.6 ± 0.6 µg/mL (≈ 5.58 µM) (19606).
`CCn1c(-c2ccc(OC)cc2)c(-c2ccc(OC)cc2)n(CC)c1=[Se+][Au-][P+](CC)(CC)CC.[Cl-]` has an FIC index of 0.375 (bacterial growth, checkerboard microdilution; carbapenem-resistant; together with: cefotaxime).
For `Oc1ccc(C(F)(F)F)cc1-c1nc2c(Cl)cc(Cl)cc2[nH]1`, “MIC of colistin” read 1 µg/mL (colistin potentiator; AB 4112, colistin-resistant; 5 µM).
`CC(C)C[C@@H]1NC(=O)[C@@H](CC(C)C)NC(=O)[C@H](CCN)NC(=O)[C@@H](NC(=O)[C@H](CCN)NC(=O)[C@@H](N)[C@@H](C)O)CCNC(=O)[C@H]([C@@H](C)O)NC(=O)[C@H](CCN)NC(=O)[C@H](CCN)NC1=O` gave an MIC of > 64 µg/mL (broth microdilution; NDM-2, NRZ 00687, CAMHB with 0.002% polysorbate-80; 16 h, 37 °C).
`O=c1c(O)ccc(Br)cc1O` gave an MIC80 of 19.8 µM (≈ 4.3 µg/mL) (multidrug-resistant Ab3).
For `CC(C)C[C@H](NC(=O)[C@H](Cc1ccc(O)cc1)NC(=O)[C@@H]1CCCN1C(=O)[C@H](CCCNC(=N)N)NC(=O)[C@@H]1CCCN1C(=O)[C@H](CCCCN)NC(=O)[C@H](CC(=O)O)NC(=O)[C@@H]1CCCN1C(=O)[C@H](CCCNC(=N)N)NC(=O)C1(N)CCCCC1)C(=O)N1CCC[C@H]1C(=O)N[C@@H](CCCNC(=N)N)C(=O)N1CCC[C@H]1C(=O)N[C@@H](CCCNC(=N)N)C(=O)N1CCC[C@H]1C(=O)N1CCC[C@H]1C(=O)N[C@@H](CCCNC(=N)N)C(=O)N1CCC[C@H]1C(=O)N[C@H](C(=O)N[C@@H](CCCNC(=N)N)C(=O)N[C@@H](CSc1c(F)c(F)c(SC[C@H](NC(=O)[C@H](CCCNC(=N)N)NC(=O)[C@@H](NC(=O)[C@@H]2CCCN2C(=O)[C@H](CCCNC(=N)N)NC(=O)[C@@H]2CCCN2C(=O)[C@@H]2CCCN2C(=O)[C@H](CCCNC(=N)N)NC(=O)[C@@H]2CCCN2C(=O)[C@H](CCCNC(=N)N)NC(=O)[C@@H]2CCCN2C(=O)[C@H](CC(C)C)NC(=O)[C@H](Cc2ccc(O)cc2)NC(=O)[C@@H]2CCCN2C(=O)[C@H](CCCNC(=N)N)NC(=O)[C@@H]2CCCN2C(=O)[C@H](CCCCN)NC(=O)[C@H](CC(=O)O)NC(=O)[C@@H]2CCCN2C(=O)[C@H](CCCNC(=N)N)NC(=O)C2(N)CCCCC2)C(C)C)C(=O)NN)c(F)c1F)C(=O)NN)C(C)C`, the MBC was 14.1 ± 0.9 µg/mL (≈ 2.64 µM) (19606).
With `CCn1c(-c2ccc(-c3ccc(F)cc3)cc2)c(-c2ccc(-c3ccc(F)cc3)cc2)n(CC)c1=[Se+][Au-][P+](CC)(CC)CC.Cl` the IC50 was 20 µM (bacterial growth; carbapenem-resistant; 2 h).
For `CC[C@H](C)[C@H](NC(=O)[C@H](CCCCN)NC(=O)[C@@H](NC(=O)[C@H](CS)NC(=O)[C@H](CCCNC(=N)N)NC(=O)[C@H](CCCNC(=N)N)NC(=O)[C@H](CC(N)=O)NC(=O)[C@H](CCCNC(=N)N)NC(=O)[C@H](CS)NC(=O)[C@@H](NC(=O)[C@H](CO)NC(=O)[C@@H](NC(=O)[C@H](CS)NC(=O)[C@H](CCCCN)NC(=O)[C@@H](N)CCCNC(=N)N)[C@@H](C)CC)C(C)C)[C@@H](C)CC)C(=O)N[C@@H](CS)C(=O)N[C@@H](CCCNC(=N)N)C(=O)O`, the MBC was 8 µg/mL (≈ 3.8 µM) (AB5075, Mueller-Hinton broth; median).

Repeated from above:
With `CCn1c(-c2ccc(-c3ccc(F)cc3)cc2)c(-c2ccc(-c3ccc(F)cc3)cc2)n(CC)c1=[Se+][Au-][P+](CC)(CC)CC.Cl` the IC50 was 20 µM (bacterial growth; carbapenem-resistant; 2 h).
